Experimental data collected from several papers.
Compare with care: the assays were run in different laboratories. Values joined by “and” are separate records of one study, mostly repeats; a detail may differ.
NT5E: 5'-nucleotidase (NT5E, Homo sapiens, UniProt P21589)
Chain of UniProt P21589 (whole entry, looked up): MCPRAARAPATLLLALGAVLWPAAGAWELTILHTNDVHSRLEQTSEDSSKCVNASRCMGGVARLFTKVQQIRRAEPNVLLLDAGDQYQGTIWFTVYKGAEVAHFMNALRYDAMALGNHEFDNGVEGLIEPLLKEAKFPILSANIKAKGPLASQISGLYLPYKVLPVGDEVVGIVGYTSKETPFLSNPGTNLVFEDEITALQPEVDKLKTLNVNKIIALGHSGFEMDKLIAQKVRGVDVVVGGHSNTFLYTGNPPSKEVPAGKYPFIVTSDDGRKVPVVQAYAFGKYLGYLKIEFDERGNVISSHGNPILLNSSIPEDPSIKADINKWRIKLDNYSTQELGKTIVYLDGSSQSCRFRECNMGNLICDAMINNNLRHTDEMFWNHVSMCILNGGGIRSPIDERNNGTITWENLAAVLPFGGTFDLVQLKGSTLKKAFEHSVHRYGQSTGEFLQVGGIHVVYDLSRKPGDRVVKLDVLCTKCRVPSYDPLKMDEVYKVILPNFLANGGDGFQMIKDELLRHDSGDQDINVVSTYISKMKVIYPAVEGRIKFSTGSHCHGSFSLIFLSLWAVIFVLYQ
rep papain-like protease: Replicase polyprotein 1ab, papain-like protease (rep, Porcine epidemic diarrhea virus, UniProt P0C6Y4)
SLC6A2: Sodium-dependent noradrenaline transporter (SLC6A2, Homo sapiens, UniProt P23975)
Chain of UniProt P23975 (whole entry, looked up): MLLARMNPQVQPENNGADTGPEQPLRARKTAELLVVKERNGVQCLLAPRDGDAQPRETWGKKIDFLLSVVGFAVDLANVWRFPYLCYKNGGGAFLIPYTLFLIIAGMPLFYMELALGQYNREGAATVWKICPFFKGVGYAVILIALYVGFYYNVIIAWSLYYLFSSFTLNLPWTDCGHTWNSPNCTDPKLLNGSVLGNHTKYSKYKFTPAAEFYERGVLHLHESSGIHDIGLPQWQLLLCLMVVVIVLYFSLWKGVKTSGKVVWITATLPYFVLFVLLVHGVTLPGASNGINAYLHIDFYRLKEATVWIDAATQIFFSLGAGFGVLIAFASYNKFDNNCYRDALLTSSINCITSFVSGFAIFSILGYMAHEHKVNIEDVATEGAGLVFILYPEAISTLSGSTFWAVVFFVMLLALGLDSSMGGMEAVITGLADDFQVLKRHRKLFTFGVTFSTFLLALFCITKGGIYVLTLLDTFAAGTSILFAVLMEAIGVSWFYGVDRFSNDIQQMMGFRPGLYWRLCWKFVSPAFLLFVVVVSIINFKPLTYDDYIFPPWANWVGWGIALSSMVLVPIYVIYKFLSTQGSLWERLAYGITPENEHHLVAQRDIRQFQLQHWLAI
CDK7 with cyclin H: Cyclin-dependent kinase 7, with cyclin H (CDK7, Homo sapiens, UniProt P50613)
Chain of UniProt P50613 (whole entry, looked up): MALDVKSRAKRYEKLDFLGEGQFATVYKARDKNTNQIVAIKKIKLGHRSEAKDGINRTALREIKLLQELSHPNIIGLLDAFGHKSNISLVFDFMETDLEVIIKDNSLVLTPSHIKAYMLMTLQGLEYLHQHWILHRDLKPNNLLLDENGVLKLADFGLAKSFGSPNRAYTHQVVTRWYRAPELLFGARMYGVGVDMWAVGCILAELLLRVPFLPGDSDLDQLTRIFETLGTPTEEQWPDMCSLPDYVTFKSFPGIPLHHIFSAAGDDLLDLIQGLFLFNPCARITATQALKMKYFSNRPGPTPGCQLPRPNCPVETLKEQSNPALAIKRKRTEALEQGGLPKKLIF
rep main protease: Replicase polyprotein 1ab, main protease (rep, Porcine epidemic diarrhea virus, UniProt P0C6Y4)
PIP4K2C: Phosphatidylinositol 5-phosphate 4-kinase type-2 gamma (PIP4K2C, Homo sapiens, UniProt Q8TBX8)
Chain of UniProt Q8TBX8 (whole entry, looked up): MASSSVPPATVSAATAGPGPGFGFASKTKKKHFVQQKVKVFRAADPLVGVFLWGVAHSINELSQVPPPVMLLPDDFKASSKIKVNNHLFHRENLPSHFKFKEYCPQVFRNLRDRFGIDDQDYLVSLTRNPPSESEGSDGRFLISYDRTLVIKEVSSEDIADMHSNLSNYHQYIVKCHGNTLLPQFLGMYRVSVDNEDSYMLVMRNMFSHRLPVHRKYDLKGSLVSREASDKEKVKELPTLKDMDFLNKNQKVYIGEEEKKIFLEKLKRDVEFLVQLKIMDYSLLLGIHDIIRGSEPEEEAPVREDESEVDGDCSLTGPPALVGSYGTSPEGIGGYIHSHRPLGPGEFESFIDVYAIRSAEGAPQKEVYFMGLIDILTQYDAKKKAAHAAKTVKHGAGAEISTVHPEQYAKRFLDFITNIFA
AMY2: Pancreatic alpha-amylase (AMY2, Sus scrofa, UniProt P00690)
Chain of UniProt P05164 (whole entry, looked up): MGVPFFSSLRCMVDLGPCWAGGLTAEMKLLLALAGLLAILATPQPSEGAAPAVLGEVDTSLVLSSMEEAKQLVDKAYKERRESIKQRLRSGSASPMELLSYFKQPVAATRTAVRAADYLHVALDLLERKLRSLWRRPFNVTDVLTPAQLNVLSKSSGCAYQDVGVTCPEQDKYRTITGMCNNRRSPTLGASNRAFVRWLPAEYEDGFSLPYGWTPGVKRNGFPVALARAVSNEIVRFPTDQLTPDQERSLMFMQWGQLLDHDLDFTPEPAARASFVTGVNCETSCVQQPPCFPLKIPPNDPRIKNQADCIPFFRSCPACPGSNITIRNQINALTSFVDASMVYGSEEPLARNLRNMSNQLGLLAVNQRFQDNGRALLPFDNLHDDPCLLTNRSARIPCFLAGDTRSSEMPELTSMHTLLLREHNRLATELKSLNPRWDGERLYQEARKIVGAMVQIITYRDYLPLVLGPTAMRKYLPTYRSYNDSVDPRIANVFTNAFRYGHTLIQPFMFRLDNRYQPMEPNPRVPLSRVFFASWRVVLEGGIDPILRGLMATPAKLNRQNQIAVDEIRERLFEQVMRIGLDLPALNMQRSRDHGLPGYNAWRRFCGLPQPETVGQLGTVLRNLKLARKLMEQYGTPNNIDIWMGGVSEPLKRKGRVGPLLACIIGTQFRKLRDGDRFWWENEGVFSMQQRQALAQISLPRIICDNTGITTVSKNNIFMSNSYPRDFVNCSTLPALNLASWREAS
Chain of UniProt P00690 (whole entry, looked up): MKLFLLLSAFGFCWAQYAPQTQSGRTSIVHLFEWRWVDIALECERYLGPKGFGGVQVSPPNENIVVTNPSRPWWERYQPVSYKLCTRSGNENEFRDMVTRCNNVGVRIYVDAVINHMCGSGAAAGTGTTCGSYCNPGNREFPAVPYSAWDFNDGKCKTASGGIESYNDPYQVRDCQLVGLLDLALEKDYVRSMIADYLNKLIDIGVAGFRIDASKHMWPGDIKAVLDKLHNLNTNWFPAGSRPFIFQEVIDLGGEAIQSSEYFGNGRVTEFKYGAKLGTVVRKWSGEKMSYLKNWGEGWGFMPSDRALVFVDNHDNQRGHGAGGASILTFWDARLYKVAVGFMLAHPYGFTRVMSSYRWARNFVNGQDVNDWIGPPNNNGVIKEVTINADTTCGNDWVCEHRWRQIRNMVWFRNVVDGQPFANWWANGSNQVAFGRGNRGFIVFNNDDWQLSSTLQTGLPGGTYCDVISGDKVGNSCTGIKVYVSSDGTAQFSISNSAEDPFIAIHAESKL
Chain of UniProt P32238 (whole entry, looked up): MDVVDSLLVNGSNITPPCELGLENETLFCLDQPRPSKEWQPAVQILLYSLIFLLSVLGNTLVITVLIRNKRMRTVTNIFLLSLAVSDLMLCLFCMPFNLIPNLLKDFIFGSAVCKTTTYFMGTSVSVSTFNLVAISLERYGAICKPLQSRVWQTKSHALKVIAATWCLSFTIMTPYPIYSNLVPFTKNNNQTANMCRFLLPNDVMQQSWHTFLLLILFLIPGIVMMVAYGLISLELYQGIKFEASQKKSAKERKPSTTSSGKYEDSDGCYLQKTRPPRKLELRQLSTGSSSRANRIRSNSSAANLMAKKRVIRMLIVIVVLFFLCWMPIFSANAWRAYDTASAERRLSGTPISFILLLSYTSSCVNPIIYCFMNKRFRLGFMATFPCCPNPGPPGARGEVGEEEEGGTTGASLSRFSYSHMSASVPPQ
Chain of UniProt Q9NSA0 (whole entry, looked up): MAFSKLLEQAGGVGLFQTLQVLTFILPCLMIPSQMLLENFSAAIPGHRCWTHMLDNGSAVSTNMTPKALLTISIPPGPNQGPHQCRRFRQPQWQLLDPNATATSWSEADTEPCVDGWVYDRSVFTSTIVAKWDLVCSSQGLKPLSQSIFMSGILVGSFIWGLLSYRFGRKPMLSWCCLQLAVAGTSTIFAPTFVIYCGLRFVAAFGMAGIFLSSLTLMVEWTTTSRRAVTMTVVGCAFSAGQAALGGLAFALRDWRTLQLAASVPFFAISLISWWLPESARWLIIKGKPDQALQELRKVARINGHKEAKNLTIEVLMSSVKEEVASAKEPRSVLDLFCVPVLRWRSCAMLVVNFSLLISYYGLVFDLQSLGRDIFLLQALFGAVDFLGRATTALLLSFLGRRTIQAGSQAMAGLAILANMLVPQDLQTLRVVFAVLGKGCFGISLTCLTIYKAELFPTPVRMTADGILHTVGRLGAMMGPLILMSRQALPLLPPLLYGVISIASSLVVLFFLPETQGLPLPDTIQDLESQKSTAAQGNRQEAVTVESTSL
Chain of UniProt P04746 (whole entry, looked up): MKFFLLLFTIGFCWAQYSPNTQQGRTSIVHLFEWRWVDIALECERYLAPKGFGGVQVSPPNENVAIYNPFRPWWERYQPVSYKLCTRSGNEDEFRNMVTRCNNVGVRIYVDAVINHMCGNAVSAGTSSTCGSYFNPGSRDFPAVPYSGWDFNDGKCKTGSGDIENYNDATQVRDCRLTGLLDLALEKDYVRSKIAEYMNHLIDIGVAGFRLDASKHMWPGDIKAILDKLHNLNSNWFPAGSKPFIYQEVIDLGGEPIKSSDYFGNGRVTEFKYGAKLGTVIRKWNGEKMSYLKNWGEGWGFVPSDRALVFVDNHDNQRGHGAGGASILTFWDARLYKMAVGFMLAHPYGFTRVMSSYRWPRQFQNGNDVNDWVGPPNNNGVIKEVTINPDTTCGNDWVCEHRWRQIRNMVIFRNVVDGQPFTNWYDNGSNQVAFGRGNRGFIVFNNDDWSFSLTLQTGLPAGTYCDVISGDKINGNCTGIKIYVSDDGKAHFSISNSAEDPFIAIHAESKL
Chain of UniProt Q00535 (whole entry, looked up): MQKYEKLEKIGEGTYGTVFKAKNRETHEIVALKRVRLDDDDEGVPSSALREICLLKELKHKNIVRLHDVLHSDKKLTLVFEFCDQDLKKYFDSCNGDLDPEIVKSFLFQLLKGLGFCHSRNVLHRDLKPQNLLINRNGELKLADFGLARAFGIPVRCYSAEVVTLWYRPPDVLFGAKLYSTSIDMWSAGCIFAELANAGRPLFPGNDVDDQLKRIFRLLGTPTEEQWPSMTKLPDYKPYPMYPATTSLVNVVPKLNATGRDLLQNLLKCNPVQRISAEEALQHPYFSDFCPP

Structure (SMILES)	target	assay	system	setting	inhibition
Cc1cc(-c2ccccc2)c(C#N)c(SCC(=O)Nc2ccon2)n1	NT5E	enzyme activity, inhibitor	–	10 µM	4%
COc1cc(CNC(=O)c2ccccc2C)cc(Br)c1OC	rep papain-like protease	enzyme activity, inhibitor, FRET	–	10 µM	98.2%
CNc1nc(C#Cc2ccc(Cl)s2)nc2c1ncn2[C@H]1[C@H](O)[C@H](O)[C@]2(CC#N)C[C@H]12	SLC6A2	ligand displacement, radioligand	–	10 µM	37%
O=c1c2cc(O)c(O)cc2oc2cc(O)c([C@@H]3O[C@H](CO)[C@@H](O)[C@H](O)[C@H]3O)c(O)c12	CDK7 with cyclin H	enzyme activity, inhibitor, ADP detection	–	10 µM	40.5%
COc1cc(CNC(=O)c2cccc(Br)c2)cc(Br)c1OC	rep main protease	enzyme activity, inhibitor, FRET	–	10 µM	23.2%
CCCCC(=O)Nc1ccc(-c2ccc3ncn(CCC)c(=O)c3c2)c(F)n1	PIP4K2C	binding, competition with immobilised ligand	–	0.5 µM	99.3%
Nc1nccc(-c2c[nH]c3ccccc23)n1	CDK7 with cyclin H	enzyme activity, inhibitor, ADP detection	–	10 µM	-10%
COc1cc(CNC(=O)c2ccc3ccccc3n2)cc(Br)c1OC	rep papain-like protease	enzyme activity, inhibitor, FRET	–	10 µM	10.1%
O=C(Nc1ccccc1)c1ccccc1	MAOB (Homo sapiens, UniProt P27338)	enzyme activity, inhibitor	–	1 µM	< 5%
COc1cc2c(cc1OC)C(=O)N(CC1CCN(Cc3ccncc3)CC1)C2	ache (Electrophorus electricus, UniProt O42275)	enzyme activity, inhibitor	–	1 µM	0.39%
COc1cc(CNC(=O)c2sc3nc(C)cc(-c4ccccc4)c3c2N)cc(OC)c1OC	NT5E	enzyme activity, inhibitor	–	10 µM	-31%
CCN(O)N=Nc1ccc(S(=O)(=O)Nc2nccs2)cc1	AMY2	enzyme activity, inhibitor	–	60 µg/mL	10.5%
CC[C@H](C)[C@H](NC(=O)[C@H](CCC(N)=O)NC(=O)[C@@H](NC(=O)[C@H](CCSC)NC(=O)[C@H](CCCCN)NC(=O)[C@H](CO)NC(=O)[C@@H](NC(=O)[C@H](CCSC)NC(=O)[C@H](CC(C)C)NC(=O)[C@H](CC(N)=O)NC(=O)[C@@H](NC(=O)[C@@H](NC(=O)[C@H](CO)NC(=O)[C@H](CC(C)C)NC(=O)[C@H](C)NC(=O)[C@H](CCCNC(=N)N)NC(=O)[C@H](CCC(=O)O)NC(=O)[C@H](Cc1ccc(O)cc1)NC(=O)[C@H](Cc1ccccc1)NC(=O)[C@H](C)NC(=O)[C@H](CC(N)=O)NC(=O)[C@@H](N)CCCCN)[C@@H](C)CC)[C@@H](C)CC)[C@@H](C)O)C(C)C)C(=O)N[C@@H](CC(N)=O)C(=O)N[C@H](C(=O)O)C(C)C	Cyclin-dependent kinase 5, with p25 (CDK5, Homo sapiens, UniProt Q00535)	enzyme activity, inhibitor, radiometric	–	100 µM	46%
O=C(NCc1ccc(O)c(O)c1)c1ccccc1	rep papain-like protease	enzyme activity, inhibitor, FRET	–	10 µM	38.9%
N#C[C@@]12C[C@@H]1[C@@H](n1cnc3c(Nc4ccc(Cl)c(Cl)c4)nc(I)nc31)[C@H](O)[C@@H]2O	SLC6A2	ligand displacement, radioligand	–	10 µM	29%
C[C@H]1O[C@H](O[C@H]2[C@H](O)[C@@H](O)[C@@H](O[C@H]3[C@H](O)[C@@H](O)C(O)O[C@@H]3CO)O[C@@H]2CO)[C@H](O)[C@@H](O)[C@@H]1N[C@H]1C=C(CO)[C@@H](O)[C@H](O)[C@H]1O (stereo partly drawn)	AMY2	enzyme activity, inhibitor	–	120 µg/mL	72.1%
COc1ccc(C(=O)NCc2ccc(O)c(O)c2)cc1	rep papain-like protease	enzyme activity, inhibitor, FRET	–	10 µM	81.5%
CN1CC(Oc2cnc(C#N)cc2-c2ccn3nc(NC(=O)C4CC4)cc3c2)C1	NUAK1 (Homo sapiens, UniProt O60285)	enzyme activity, inhibitor	–	1 µM	-14%
C[C@H]1O[C@H](O[C@H]2[C@H](O)[C@@H](O)[C@@H](O[C@H]3[C@H](O)[C@@H](O)C(O)O[C@@H]3CO)O[C@@H]2CO)[C@H](O)[C@@H](O)[C@@H]1N[C@H]1C=C(CO)[C@@H](O)[C@H](O)[C@H]1O (stereo partly drawn)	Pancreatic alpha-amylase (Homo sapiens, UniProt P04746)	enzyme activity, inhibitor	–	50 µg/mL	88.7%
Cc1cc(O)c(-c2ccc([C@@H](C)CN(C)C)cc2)c2c1[nH]c(=O)c1sccc12	PIKFYVE (Homo sapiens, UniProt Q9Y2I7)	cell-free assay, inhibitor	–	0.1 µM	4.14%
CCCn1cnc2ccc(-c3ccc(NC(=O)c4ccccc4)nc3)cc2c1=O	PIP4K2C	binding, competition with immobilised ligand	–	0.5 µM	99.5%

Structure (SMILES)	target	assay	system	setting	inhibition
COc1ccc(CNC(=O)c2ccccc2)cc1OC	rep main protease	enzyme activity, inhibitor, FRET	–	10 µM	34.5%
CN(O)N=Nc1ccc(S(=O)(=O)Nc2nccs2)cc1	AMY2	enzyme activity, inhibitor	–	20 µg/mL	15.8%
COc1cc(CNC(=O)c2ccc(Cl)c(F)c2)cc(Br)c1OC	rep main protease	enzyme activity, inhibitor, FRET	–	10 µM	33.7%
CCNCc1cnn(-c2ccc(-n3ccc(Cl)c(Cl)c3=O)cc2)c1C(F)(F)F	TRPC3 (Homo sapiens, UniProt Q13507)	ion current, inhibitor, patch clamp	HEK293	10 µM	> 90%
CCN1/C(=C/C(C)=O)Sc2ccc(F)cc21	CCKAR (Homo sapiens, UniProt P32238)	ligand displacement, radioligand	–	10 µM	0%
O=S(=O)(Nc1nccs1)c1ccc(N=NN(O)c2ccccc2)cc1	AMY2	enzyme activity, inhibitor	–	120 µg/mL	31.6%
CCCCC(=O)Nc1cc(F)c(-c2ccc3ncn(CCC)c(=O)c3c2)cn1	PIP4K2C	binding, competition with immobilised ligand	–	0.5 µM	97.9%
COc1cc(CNC(=O)CSc2nc(C)cc(-c3ccccc3)c2C#N)cc(OC)c1OC	NT5E	enzyme activity, inhibitor	–	10 µM	29%
Cc1ccc(N(O)N=Nc2ccc(S(=O)(=O)Nc3onc(C)c3C)cc2)cc1	AMY2	enzyme activity, inhibitor	–	300 µg/mL	57.9%
CCc1nn(C)c2nc(-c3ccc(C(=O)O)cc3)nc(NCc3ccc(F)cc3)c12	PDE4B (Homo sapiens, UniProt Q07343)	enzyme activity, inhibitor, radiometric	–	10 µM	54.3%
CCOC(=O)c1ccc(NC(=O)CSc2nc(C)cc(-c3ccccc3)c2C#N)cc1	NT5E	enzyme activity, inhibitor	–	10 µM	56%
CCCN(O)N=Nc1ccc(S(=O)(=O)Nc2nccs2)cc1	AMY2	enzyme activity, inhibitor	–	180 µg/mL	42.1%
CO[C@H]1C(=O)[C@]2(C)[C@@H](OC)C[C@H]3OC[C@@]3(OC(C)=O)[C@H]2[C@H](OC(=O)c2ccccc2)[C@]2(O)C[C@H](OC(=O)[C@H](O)[C@@H](NC(=O)OC(C)(C)C)c3ccccc3)C(C)=C1C2(C)C	SLC22A11 (Homo sapiens, UniProt Q9NSA0)	transporter uptake, inhibitor	–	25 µM	74.4%
NC/C(=C\F)COc1cccc(Cn2c(=S)[nH]c(=O)c3[nH]cnc32)c1	Myeloperoxidase (MPO, Homo sapiens, UniProt P05164)	enzyme activity, inhibitor, fluorescence	–	61.7 nM	79% and 90.8% and 65.1% and 76.3% and 94.3% and 78.8% and 61.6% and 85.3%
CCCN(O)N=Nc1ccc(S(=O)(=O)Nc2onc(C)c2C)cc1	AMY2	enzyme activity, inhibitor	–	180 µg/mL	57.9%
COCCOCCOCCNC(=O)c1sc2nc(C)cc(C)c2c1N	NT5E	enzyme activity, inhibitor	–	10 µM	-1%
O=C1C[C@@H](c2ccc(O)cc2)Oc2c(Br)c(O)c(Br)c(O)c21	AMY2	enzyme activity, inhibitor	–	50 µM, 30 min	52.3%
COc1ccc(NC(=O)CSc2nc(-c3ccccc3)cc(C)c2C#N)cc1	NT5E	enzyme activity, inhibitor, HPLC	–	10 µM	79%
CCN(O)N=Nc1ccc(S(=O)(=O)Nc2onc(C)c2C)cc1	AMY2	enzyme activity, inhibitor	–	120 µg/mL	36.8%
O=C(NCc1cc(O)c(O)c(Br)c1)c1ccc(Cl)nc1	rep papain-like protease	enzyme activity, inhibitor, FRET	–	10 µM	7.12%
COc1cc(C2Oc3cc([C@H]4Oc5cc(O)cc(O)c5C(=O)[C@@H]4O)ccc3OC2CO)ccc1O (stereo partly drawn)	CDK7 with cyclin H	enzyme activity, inhibitor, ADP detection	–	10 µM	27%

For quick reference, copied from above:
Structure (SMILES)	target	assay	system	setting	inhibition
CC[C@H](C)[C@H](NC(=O)[C@H](CCC(N)=O)NC(=O)[C@@H](NC(=O)[C@H](CCSC)NC(=O)[C@H](CCCCN)NC(=O)[C@H](CO)NC(=O)[C@@H](NC(=O)[C@H](CCSC)NC(=O)[C@H](CC(C)C)NC(=O)[C@H](CC(N)=O)NC(=O)[C@@H](NC(=O)[C@@H](NC(=O)[C@H](CO)NC(=O)[C@H](CC(C)C)NC(=O)[C@H](C)NC(=O)[C@H](CCCNC(=N)N)NC(=O)[C@H](CCC(=O)O)NC(=O)[C@H](Cc1ccc(O)cc1)NC(=O)[C@H](Cc1ccccc1)NC(=O)[C@H](C)NC(=O)[C@H](CC(N)=O)NC(=O)[C@@H](N)CCCCN)[C@@H](C)CC)[C@@H](C)CC)[C@@H](C)O)C(C)C)C(=O)N[C@@H](CC(N)=O)C(=O)N[C@H](C(=O)O)C(C)C	Cyclin-dependent kinase 5, with p25 (CDK5, Homo sapiens, UniProt Q00535)	enzyme activity, inhibitor, radiometric	–	100 µM	46%
COc1cc2c(cc1OC)C(=O)N(CC1CCN(Cc3ccncc3)CC1)C2	ache (Electrophorus electricus, UniProt O42275)	enzyme activity, inhibitor	–	1 µM	0.39%
CCN(O)N=Nc1ccc(S(=O)(=O)Nc2nccs2)cc1	AMY2	enzyme activity, inhibitor	–	60 µg/mL	10.5%
COCCOCCOCCNC(=O)c1sc2nc(C)cc(C)c2c1N	NT5E	enzyme activity, inhibitor	–	10 µM	-1%
CO[C@H]1C(=O)[C@]2(C)[C@@H](OC)C[C@H]3OC[C@@]3(OC(C)=O)[C@H]2[C@H](OC(=O)c2ccccc2)[C@]2(O)C[C@H](OC(=O)[C@H](O)[C@@H](NC(=O)OC(C)(C)C)c3ccccc3)C(C)=C1C2(C)C	SLC22A11 (Homo sapiens, UniProt Q9NSA0)	transporter uptake, inhibitor	–	25 µM	74.4%
CN1CC(Oc2cnc(C#N)cc2-c2ccn3nc(NC(=O)C4CC4)cc3c2)C1	NUAK1 (Homo sapiens, UniProt O60285)	enzyme activity, inhibitor	–	1 µM	-14%
